Measured values gathered from unrelated publications.
Compare with care: the assays were run in different laboratories. Numbers after ± are the reported error.
Sequence of UniProt Q01105 (whole entry, unmodified, looked up): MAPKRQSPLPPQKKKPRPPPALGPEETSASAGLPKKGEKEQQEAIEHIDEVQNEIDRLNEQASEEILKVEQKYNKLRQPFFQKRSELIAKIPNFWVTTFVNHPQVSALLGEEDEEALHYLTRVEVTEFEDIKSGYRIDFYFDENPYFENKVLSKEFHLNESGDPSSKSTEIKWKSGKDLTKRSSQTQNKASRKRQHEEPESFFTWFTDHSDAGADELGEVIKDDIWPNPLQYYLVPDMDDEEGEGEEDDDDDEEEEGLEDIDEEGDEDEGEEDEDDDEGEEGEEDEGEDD
Sequence of UniProt Q9UBN7 (whole entry, looked up): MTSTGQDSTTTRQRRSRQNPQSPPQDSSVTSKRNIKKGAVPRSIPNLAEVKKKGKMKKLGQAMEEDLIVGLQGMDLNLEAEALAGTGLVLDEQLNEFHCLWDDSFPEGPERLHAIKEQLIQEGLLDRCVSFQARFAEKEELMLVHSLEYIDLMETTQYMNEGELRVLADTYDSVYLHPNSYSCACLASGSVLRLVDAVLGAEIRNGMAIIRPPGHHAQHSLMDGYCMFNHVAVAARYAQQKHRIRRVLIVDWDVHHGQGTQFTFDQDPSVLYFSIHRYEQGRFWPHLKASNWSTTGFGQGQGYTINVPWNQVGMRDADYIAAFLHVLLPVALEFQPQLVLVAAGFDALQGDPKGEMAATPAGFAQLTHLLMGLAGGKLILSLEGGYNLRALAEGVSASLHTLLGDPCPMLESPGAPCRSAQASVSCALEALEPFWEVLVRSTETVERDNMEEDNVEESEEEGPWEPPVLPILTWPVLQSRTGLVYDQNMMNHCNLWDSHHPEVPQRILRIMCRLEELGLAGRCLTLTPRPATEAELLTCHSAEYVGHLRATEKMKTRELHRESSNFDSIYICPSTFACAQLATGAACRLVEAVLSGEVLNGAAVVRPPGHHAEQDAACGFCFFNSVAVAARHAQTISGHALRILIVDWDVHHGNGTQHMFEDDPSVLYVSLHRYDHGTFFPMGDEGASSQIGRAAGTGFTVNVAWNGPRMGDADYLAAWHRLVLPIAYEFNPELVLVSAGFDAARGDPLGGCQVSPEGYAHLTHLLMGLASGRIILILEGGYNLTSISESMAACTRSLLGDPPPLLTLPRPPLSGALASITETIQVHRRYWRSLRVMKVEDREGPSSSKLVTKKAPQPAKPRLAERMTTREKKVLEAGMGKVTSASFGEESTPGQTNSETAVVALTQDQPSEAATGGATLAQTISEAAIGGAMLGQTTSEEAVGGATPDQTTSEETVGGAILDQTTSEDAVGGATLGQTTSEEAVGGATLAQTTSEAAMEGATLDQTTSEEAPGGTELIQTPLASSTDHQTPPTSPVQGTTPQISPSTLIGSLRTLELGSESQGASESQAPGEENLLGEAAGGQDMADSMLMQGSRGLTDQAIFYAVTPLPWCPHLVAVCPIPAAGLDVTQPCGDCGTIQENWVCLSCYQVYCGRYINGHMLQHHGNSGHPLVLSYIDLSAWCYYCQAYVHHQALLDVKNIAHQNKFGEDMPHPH
Sequence of UniProt P00698 (whole entry, looked up): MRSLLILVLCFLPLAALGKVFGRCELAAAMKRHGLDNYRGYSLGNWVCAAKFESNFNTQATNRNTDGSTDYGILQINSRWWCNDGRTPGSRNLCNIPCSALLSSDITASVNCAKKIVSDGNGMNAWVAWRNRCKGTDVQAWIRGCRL
Sequence of UniProt P14618 (whole entry, looked up): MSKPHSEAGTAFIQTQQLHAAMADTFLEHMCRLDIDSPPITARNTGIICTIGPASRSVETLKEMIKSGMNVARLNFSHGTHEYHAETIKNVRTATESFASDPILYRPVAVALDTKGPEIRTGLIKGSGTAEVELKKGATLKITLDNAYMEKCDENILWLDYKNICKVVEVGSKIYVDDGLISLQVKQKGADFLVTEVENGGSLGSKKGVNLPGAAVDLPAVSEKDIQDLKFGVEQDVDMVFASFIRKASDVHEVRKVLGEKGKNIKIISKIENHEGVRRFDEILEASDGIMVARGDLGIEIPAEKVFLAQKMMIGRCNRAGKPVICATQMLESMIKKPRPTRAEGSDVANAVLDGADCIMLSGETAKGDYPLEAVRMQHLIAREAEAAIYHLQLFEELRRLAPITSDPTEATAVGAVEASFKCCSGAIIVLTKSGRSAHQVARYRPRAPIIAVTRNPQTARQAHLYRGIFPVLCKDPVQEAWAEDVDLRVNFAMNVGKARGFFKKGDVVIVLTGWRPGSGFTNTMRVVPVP
Sequence of UniProt Q60893 (whole entry, looked up): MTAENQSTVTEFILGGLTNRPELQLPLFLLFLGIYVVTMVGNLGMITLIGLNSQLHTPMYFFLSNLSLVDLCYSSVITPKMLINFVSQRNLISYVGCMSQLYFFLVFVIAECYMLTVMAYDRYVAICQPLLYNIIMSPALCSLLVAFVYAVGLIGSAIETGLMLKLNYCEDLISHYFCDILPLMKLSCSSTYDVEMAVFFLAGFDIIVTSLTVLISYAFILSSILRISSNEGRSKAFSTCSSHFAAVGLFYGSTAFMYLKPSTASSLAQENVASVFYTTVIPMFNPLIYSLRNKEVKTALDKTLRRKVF
Sequence of UniProt P00519 (whole entry, unmodified, looked up): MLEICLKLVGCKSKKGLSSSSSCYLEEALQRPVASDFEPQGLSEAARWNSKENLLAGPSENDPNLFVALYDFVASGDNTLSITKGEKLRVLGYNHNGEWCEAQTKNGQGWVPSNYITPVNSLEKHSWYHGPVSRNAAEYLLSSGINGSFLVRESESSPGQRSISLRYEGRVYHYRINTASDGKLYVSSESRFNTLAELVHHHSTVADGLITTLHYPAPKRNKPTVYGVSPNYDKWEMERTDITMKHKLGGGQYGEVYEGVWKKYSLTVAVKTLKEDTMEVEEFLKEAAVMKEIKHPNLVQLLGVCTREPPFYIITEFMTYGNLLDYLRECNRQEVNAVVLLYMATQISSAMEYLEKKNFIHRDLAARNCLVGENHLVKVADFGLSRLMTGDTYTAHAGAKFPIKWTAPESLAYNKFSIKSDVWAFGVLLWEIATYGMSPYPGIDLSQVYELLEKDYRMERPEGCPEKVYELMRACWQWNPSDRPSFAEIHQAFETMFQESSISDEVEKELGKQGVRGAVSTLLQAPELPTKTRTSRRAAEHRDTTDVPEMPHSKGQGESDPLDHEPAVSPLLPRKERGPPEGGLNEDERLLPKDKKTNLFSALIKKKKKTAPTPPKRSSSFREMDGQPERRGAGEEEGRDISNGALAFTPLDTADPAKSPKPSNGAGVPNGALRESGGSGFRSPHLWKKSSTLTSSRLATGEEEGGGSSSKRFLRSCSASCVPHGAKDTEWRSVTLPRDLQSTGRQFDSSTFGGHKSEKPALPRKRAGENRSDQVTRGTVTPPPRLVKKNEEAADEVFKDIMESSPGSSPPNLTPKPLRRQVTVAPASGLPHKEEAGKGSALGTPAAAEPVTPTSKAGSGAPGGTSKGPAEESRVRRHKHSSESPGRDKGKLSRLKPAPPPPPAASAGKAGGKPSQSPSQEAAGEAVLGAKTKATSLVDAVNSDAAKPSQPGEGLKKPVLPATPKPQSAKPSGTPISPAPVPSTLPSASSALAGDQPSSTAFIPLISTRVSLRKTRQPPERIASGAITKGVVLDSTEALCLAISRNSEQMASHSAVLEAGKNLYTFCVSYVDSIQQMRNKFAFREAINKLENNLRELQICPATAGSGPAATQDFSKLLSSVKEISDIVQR
Sequence of UniProt Q96GX5 (whole entry, looked up): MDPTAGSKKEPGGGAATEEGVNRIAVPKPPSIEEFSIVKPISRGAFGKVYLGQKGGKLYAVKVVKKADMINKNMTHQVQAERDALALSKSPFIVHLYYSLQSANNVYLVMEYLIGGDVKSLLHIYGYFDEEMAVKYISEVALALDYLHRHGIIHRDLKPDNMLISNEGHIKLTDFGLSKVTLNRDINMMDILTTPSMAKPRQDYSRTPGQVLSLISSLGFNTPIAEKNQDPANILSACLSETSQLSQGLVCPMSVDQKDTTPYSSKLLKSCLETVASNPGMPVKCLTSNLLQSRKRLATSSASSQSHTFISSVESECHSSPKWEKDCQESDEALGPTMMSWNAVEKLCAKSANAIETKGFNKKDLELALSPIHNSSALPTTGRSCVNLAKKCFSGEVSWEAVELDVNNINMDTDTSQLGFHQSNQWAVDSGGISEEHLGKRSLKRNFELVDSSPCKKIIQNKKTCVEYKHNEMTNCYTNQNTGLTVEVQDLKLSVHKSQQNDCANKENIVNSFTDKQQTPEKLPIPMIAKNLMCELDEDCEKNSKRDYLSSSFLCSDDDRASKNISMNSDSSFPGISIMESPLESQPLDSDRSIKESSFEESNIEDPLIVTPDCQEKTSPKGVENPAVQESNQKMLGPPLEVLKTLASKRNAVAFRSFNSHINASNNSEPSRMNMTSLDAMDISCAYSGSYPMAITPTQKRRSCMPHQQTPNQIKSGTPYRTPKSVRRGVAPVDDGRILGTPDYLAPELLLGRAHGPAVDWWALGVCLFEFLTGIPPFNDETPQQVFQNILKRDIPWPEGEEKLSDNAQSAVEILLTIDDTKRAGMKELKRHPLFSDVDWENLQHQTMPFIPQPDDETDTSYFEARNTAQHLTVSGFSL
Sequence of UniProt Q9I4X0 (whole entry, looked up): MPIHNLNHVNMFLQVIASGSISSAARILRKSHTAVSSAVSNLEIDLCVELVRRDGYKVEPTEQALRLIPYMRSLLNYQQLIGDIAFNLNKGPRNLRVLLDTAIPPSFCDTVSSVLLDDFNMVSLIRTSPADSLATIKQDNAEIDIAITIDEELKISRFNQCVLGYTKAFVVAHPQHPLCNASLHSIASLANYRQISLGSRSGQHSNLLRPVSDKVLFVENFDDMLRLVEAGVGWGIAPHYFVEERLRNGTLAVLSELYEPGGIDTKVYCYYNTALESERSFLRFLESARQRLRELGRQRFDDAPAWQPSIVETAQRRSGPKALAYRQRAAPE

| Compound | target | test | test system | conditions | scale | quantity | value |
| --- | --- | --- | --- | --- | --- | --- | --- |
| Cc1ncsc1-c1ccc(CNC(=O)[C@@H]2C[C@@H](O)CN2C(=O)[C@@H](NC(=O)C2(F)CC2)C(C)(C)C)c(OCCOc2ccc(CN3CCN(c4cc(-c5ccccc5O)nnc4N)CC3)cc2)c1 | SWI/SNF-related matrix-associated actin-dependent regulator of chromatin subfamily A member 2 (SMARCA2, Homo sapiens, UniProt P51531) | ternary complex binding, AlphaLISA competition | HEK293 cell lysate | added: full-length VCB | relative to: binary IC50 over ternary IC50 | cooperativity factor alpha | 0.9 |
| CN(CCCC(F)(F)F)c1nccc(-c2cnn3ncccc23)n1 | Tyrosine-protein kinase ABL1 (ABL1, Homo sapiens, UniProt P00519, Q252H) | KINOMEscan | – | 1 µM | relative to: control | remaining binding | 80% |
| c1ccc2ncccc2c1 | Or8a1 (Mus musculus, UniProt Q60893) | odorant-evoked current, agonist | isolated olfactory neurons | – | relative to: acetophenone saturated response | Emax | 100 ± 3% |
| O=C(COP(=O)(O)O)[C@@H](O)[C@H](O)[C@H](O)COP(=O)(O)O | Pyruvate kinase PKM (PKM, Homo sapiens, UniProt P14618) | pyruvate kinase activity, activator | SK-HEP1 cell lysate | without AIM | – | minimum concentration, maximal activation | 232 ± 128 nM |
| CCCCC[S+]([O-])c1n[nH]c(N)n1 (stereo not shown) | Huntingtin (HTT, Homo sapiens, UniProt P42858) | binding, affinity selection mass spectrometry | – | – | relative to: other proteins in batch | fold enrichment | 0.874 |
| O=C1C=CC(=O)c2c1ccc1ccccc21 | Aryl hydrocarbon receptor (Danio rerio, UniProt Q9YGV3) | reporter gene, agonist, luciferase reporter | ZF-4 | 1.524 µM | relative to: vehicle control | fold change | 1.51 |
| CCN1CCC[C@H]1CNC(=O)c1c(O)c(Cl)cc(Cl)c1OC | Probable G-protein coupled receptor 25 (GPR25, Homo sapiens, UniProt O00155) | β-arrestin recruitment, TANGO luminescence, measured: GPR25 | – | concentration not given | relative to: basal luminescence | log2 fold change | -0.036 |
| Nc1ncnc2c1ncn2[C@@H]1O[C@H](COP(=O)(O)OP(=O)(O)O)[C@@H](O)[C@H]1O | GUK1 (Homo sapiens, UniProt Q16774) | ITC | – | molar ratio 2.388 | – | ΔH | -0.231 kcal/mol |
| CN(CCCCCCNC(=O)CNc1cccc2c1C(=O)N(C1CCC(=O)NC1=O)C2=O)Cc1cn(Cc2ccc(C(=O)NO)cc2)c2ccccc12.O=C(O)C(F)(F)F (stereo not shown) | Protein deacetylase HDAC6 (HDAC6, Homo sapiens, UniProt Q9UBN7) | degrader, western blot | MM1.S | 1 µM, 24 h | – | degradation | 94% |
| C=CC(=O)N1CCC[C@@H](n2nc(-c3ccc(Oc4ccccc4)cc3)c3c(N)ncnc32)C1 | Serine-protein kinase ATM (ATM, Homo sapiens, UniProt Q13315) | – | – | 10 µM | – | remaining activity | 137% |
| Oc1ccccc1-c1n[nH]cc1-c1ccnc2ccccc12 | pH-response regulator protein palF/RIM8 (RIM8, Candida albicans, UniProt Q9UW13) | kinase binding, MIB/MS competition | Candida albicans lysate | 10 µM | relative to: DMSO, negative = stronger binding | log2 fold change | 0.4 |
| CCCCCCCCCCCCC/C=C/[C@@H](O)[C@H](CO)NC(=O)CCCCCCCCCCCCCCCCCCCCC | Protein SET (SET, Homo sapiens, UniProt Q01105, K222D) | lipid binding, GFP pull-down LC-MS/MS | A549 overexpressing GFP-tagged protein | – | relative to: eluate plus flow-through | lipid fraction bound | 2.8% |
| CC[C@@H]1[C@H](F)C(=O)N[C@@H]1COc1nccc2cc(C(N)=O)c(OC)cc12 | Serine/threonine-protein kinase greatwall (MASTL, Homo sapiens, UniProt Q96GX5) | ATP-site probe binding, ActivX profiling | THP-1 cell lysate | 0.2 mM, Lys1 site | – | inhibition | 12.7% |
| NCC(=O)O | Lysozyme C (LYZ, Gallus gallus, UniProt P00698) | intrinsic fluorescence | – | concentration not given, pH 6.9, 25 °C, lysozyme 10 µM | – | number of binding sites | 0.76 ± 0.05 |
| CCCCCCCCCCCCC/C=C/[C@@H](O)[C@H](CO)NC(=O)CCCCCCCCCCCCCCCCCCCCCCCCC | Protein SET (SET, Homo sapiens, UniProt Q01105) | lipid binding, GFP pull-down LC-MS/MS | A549 overexpressing GFP-tagged protein | – | relative to: eluate plus flow-through | lipid fraction bound | 11.7% |
| COc1cc(C#CC(=O)c2ccccc2OC)ccc1O | mvfR (Pseudomonas aeruginosa, UniProt Q9I4X0) | receptor binding | – | concentration not given, 1.5 h, added: PQS at 1:1 ratio | relative to: control | binding | 84% |

A few entries again:
| Compound | target | test | test system | conditions | scale | quantity | value |
| --- | --- | --- | --- | --- | --- | --- | --- |
| O=C(COP(=O)(O)O)[C@@H](O)[C@H](O)[C@H](O)COP(=O)(O)O | Pyruvate kinase PKM (PKM, Homo sapiens, UniProt P14618) | pyruvate kinase activity, activator | SK-HEP1 cell lysate | without AIM | – | minimum concentration, maximal activation | 232 ± 128 nM |
| CCCCC[S+]([O-])c1n[nH]c(N)n1 (stereo not shown) | Huntingtin (HTT, Homo sapiens, UniProt P42858) | binding, affinity selection mass spectrometry | – | – | relative to: other proteins in batch | fold enrichment | 0.874 |
